Published values gathered from unrelated publications.

`O=C1Nc2cc3[nH]nc(-c4ccncc4)c3cc2CN1Cc1ccccc1` — result for “patients with vomiting”: 25% (CTCAE v4.03; human, relapsed or refractory advanced solid tumours; intravenous, 4.8 mg/kg, pooled schedules).
`COc1ccc(-c2c(-c3ccc(C#N)c(F)c3)nc(N3CCC(N)CC3)n(C)c2=O)cc1F` — result for “patients with serious TEAE”: 2% (item: metastases to skin; human patients; oral, dose not given, dose escalation).
`COc1ncnn2ccc(-c3cnc4nc(C)n(Cc5nnc([C@@H](C)F)o5)c4c3)c12` — result for “patients with stomatitis”: 0% (human; oral, dose not given, grade 3).
Under “patients with TEAE”, `Cc1cn([C@H]2O[C@@H](CO[P@@](=O)(N[C@@H](C)C(=O)OC(C)C)Oc3ccccc3)[C@H](O)[C@H]2F)c(=O)[nH]c1=O` is recorded as 0% (item: Fatigue; human; 50 mg).
`N[C@@H]1c2ccccc2OC12CCN(c1cnc3c(N4CCCc5ncccc54)n[nH]c3n1)CC2`: “patients with serious adverse event” 5.4% (item: dyspnea; human advanced or metastatic solid tumours; oral, dose not given, phase Ia).
`Cn1cncc1-c1c(F)cncc1NC(=O)c1c(N)nn2cc(F)cnc12` — result for “patients grade ≥3 Hyponatremia”: 0% (human patients; oral, 150 mg twice daily, 4 days on 3 days off).
`CN[C@@H](C)C(=O)N[C@H]1CN(S(=O)(=O)c2cccc(S(=O)(=O)N3CC[C@H]4CC[C@@H](C(=O)NC(c5ccccc5)c5ccccc5)N4C(=O)[C@@H](NC(=O)[C@H](C)NC)C3)c2)CC[C@H]2CC[C@@H](C(=O)NC(c3ccccc3)c3ccccc3)N2C1=O` — result for “patients with treatment-related asthenia”: 0% (human, advanced solid tumours; 0.6 mg).
For `C[C@@H]1OC(=O)NN=C1c1ccc(-c2ccc(F)cc2)c(C(F)(F)F)c1`, “patients with adverse event” read 0% (phase I trial, item: Ascites all grades; human patients; 10 mg loading then 0.5 mg daily).
`Cn1nc(NS(C)(=O)=O)c2c(Cl)ccc(-n3c([C@H](Cc4cc(F)cc(F)c4)NC(=O)Cn4nc(C(F)F)c5c4C(F)(F)[C@@H]4C[C@H]54)nc4nc(OCCC(F)(F)F)ccc4c3=O)c21`: “patients with laboratory abnormality” 0% (item: total cholesterol grade 3 increase; human; 400 mg once daily, powder in bottle).
`C=CC(=O)Nc1cc(Nc2nccc(Nc3cc(Cl)c(F)cc3C(C)(C)O)n2)c(OC)cc1N1CC[C@@H](N(C)C)C1` — result for “patients with nausea”: 37.3% (human patients; oral, 300 mg, treatment-emergent adverse events).
Under “patients with Rash TEAE”, `C[C@]1(O)C[C@@](N)(c2ccc(-c3nc4n(c3-c3ccccc3)COc3ccncc3-4)cc2)C1` is recorded as 50% (human, advanced or metastatic solid tumours; 24 mg intermittent, phase I dose escalation).
`CN(C)C(=O)c1cc2cnc(Nc3ccc(N4CCNCC4)cn3)nc2n1C1CCCC1`: “patients with adverse event” 0% (item: QT interval prolongation; human, HR+/HER2− advanced breast cancer; oral, dose not given, grade 4, CTCAE v4.03).

Excerpt of the above:
`CN(C)C(=O)c1cc2cnc(Nc3ccc(N4CCNCC4)cn3)nc2n1C1CCCC1`: “patients with adverse event” 0% (item: QT interval prolongation; human, HR+/HER2− advanced breast cancer; oral, dose not given, grade 4, CTCAE v4.03).
